Measured values pooled from the literature.
Protocols differ between the studies behind these lines. Numbers after ± are the reported error.
Sequence of UniProt Q12809 (whole entry, looked up): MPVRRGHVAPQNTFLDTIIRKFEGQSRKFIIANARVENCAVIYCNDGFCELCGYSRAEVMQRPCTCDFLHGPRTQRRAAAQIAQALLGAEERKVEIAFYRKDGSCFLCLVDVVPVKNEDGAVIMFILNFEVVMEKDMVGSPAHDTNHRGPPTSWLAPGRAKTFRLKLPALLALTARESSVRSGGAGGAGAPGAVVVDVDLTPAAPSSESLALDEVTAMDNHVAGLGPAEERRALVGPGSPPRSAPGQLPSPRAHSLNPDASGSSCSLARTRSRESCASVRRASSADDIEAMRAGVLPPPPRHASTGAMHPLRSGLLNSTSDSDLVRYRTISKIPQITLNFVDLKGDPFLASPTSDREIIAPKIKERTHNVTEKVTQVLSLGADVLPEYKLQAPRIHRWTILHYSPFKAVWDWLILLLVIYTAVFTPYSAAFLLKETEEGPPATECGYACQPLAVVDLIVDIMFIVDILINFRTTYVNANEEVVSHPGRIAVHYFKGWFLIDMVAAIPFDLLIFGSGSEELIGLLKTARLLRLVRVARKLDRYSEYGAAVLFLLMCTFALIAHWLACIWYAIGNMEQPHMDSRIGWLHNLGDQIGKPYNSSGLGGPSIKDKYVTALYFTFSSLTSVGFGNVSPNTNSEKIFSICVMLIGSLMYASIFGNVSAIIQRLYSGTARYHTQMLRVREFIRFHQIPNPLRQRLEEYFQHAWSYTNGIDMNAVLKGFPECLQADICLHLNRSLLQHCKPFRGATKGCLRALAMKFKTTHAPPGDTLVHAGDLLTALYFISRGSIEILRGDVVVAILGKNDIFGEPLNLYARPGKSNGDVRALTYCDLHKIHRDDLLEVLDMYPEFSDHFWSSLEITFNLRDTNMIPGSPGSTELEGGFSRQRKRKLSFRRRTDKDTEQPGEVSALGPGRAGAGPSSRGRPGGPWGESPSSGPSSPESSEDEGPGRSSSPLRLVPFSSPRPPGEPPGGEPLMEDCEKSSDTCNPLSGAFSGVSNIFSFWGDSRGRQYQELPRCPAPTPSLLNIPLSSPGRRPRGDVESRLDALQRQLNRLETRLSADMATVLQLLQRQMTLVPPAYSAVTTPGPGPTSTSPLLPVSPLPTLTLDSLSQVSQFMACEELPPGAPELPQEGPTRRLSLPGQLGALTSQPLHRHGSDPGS

Compound | target or system | test | test system | conditions | how to read | endpoint | value
CC(C)C(=O)OC[C@H]1O[C@@H](n2ccc(NO)nc2=O)[C@H](O)[C@@H]1O |  |  | rat plasma | 100 µM, 0.5 h, no CES inhibitor |  | remaining compound | 0%
CC(C)(C)[C@H](NC(=O)C(F)(F)F)C(=O)N1C[C@H]2[C@@H]([C@H]1C(=O)N[C@H](C#N)C[C@@H]1CCNC1=O)C2(C)C |  |  | human, fasted | oral, 1500 mg single dose, 28 days, no ritonavir |  | participants with related adverse events | 0%
COc1ccc([C@@H](O)c2cc(-c3ncnc4cc(N5CCOCC5)ccc34)c(F)cc2Cl)nn1 |  |  | patients, advanced solid tumours | oral, 200 mg once daily, 10 dosing days, treatment-emergent, together with: avelumab, radiotherapy |  | injury, poisoning, procedural complications incidence | 1%
CNC(=O)[C@@H](NC(=O)[C@H](CC(C)C)[C@H](O)C(=O)NO)C(C)(C)C | human fibrinogen | SDS-PAGE | Daboia russelii | concentration not given, unit not given, together with: KA venom | relative to: untreated fibrinogen | remaining fibrinogen Bβ chain | 0.632
Cc1cc(C)c(CNC(=O)c2cc(Cl)c3c(c2C)O[C@@](C)([C@H]2CC[C@H](N(C)C)CC2)O3)c(=O)[nH]1 |  |  | human, relapsed/refractory NHL | concentration not given, all TEAEs, grade 4 |  | COVID-19 pneumonia incidence | 0%
CC(=O)c1c(O)c(C)c(O)c(Cc2c(O)c3c(c(C(=O)/C=C/c4ccccc4)c2O)OC(C)(C)C=C3)c1O | Voltage-gated inwardly rectifying potassium channel KCNH2 (KCNH2, Homo sapiens, UniProt Q12809) | potassium current, whole-cell patch clamp | HEK293 expressing hERG1 | 15 µM, at -120 mV |  | fast component amplitude | 47.3 ± 5%
CC(C)n1c(C2CCNCC2)nc2c([N+](=O)[O-])c(Br)c(Br)cc21 |  |  | patients with AML | 125 mg, test, SARS-CoV-2, positive |  | AE leading to interruption | 2%
C[C@@H]1C[C@H]2[C@@H]3CCC4=CC(=O)C=C[C@]4(C)[C@@]3(F)[C@@H](O)C[C@]2(C)[C@@]1(O)C(=O)CO |  |  | human, plasma | 20 mg |  | Cmax | 660 nM
Cc1cc(C)c(CNC(=O)c2cc(Cl)c3c(c2C)O[C@@](C)([C@H]2CC[C@H](N(C)C)CC2)O3)c(=O)[nH]1 |  | measured: COVID-19 | human patients | oral, 200 mg once daily, 1 day onset day 14 |  | patients with grade ≥3 TEAE | 0%
Cn1cnc(Cn2c(=O)[nH]/c(=N\c3cc4cn(C)nc4cc3Cl)n(Cc3cc(F)c(F)cc3F)c2=O)n1 |  |  | human, severe renal impairment | oral, 375 mg |  | dry mouth TEAE, Severe severity | 0%
Cn1cnc(Cn2c(=O)[nH]/c(=N\c3cc4cn(C)nc4cc3Cl)n(Cc3cc(F)c(F)cc3F)c2=O)n1 |  |  | healthy Japanese adults, plasma | oral, 750 mg, day 1, fasted, with prednisolone |  | AUC(0-tau) | 554 µg·h/mL
Nc1ncnc2c([C@@H]3N[C@H](CO)[C@@H](O)[C@H]3O)c[nH]c12 | Zaire ebolavirus | viral replication | HeLa, Kikwit | 0.8 µM |  | inhibition | 0%
CC[C@H](C)[C@H](NC(=O)[C@H](CC(C)C)NC(=O)[C@H](Cc1c[nH]c2ccccc12)NC(=O)[C@H](CCC(N)=O)NC(=O)[C@@H](NC(=O)[C@H](Cc1ccccc1)NC(=O)[C@H](C)NC(=O)[C@H](CCCCNC(=O)COCCOCCNC(=O)COCCOCCNC(=O)CC[C@H](NC(=O)CCCCCCCCCCCCCCCCCCC(=O)O)C(=O)O)NC(=O)[C@H](CCC(N)=O)NC(=O)[C@H](C)NC(=O)[C@@H](NC(=O)[C@H](CCCCN)NC(=O)[C@H](CC(=O)O)NC(=O)[C@H](CC(C)C)NC(=O)C(C)(C)NC(=O)[C@@H](NC(=O)[C@H](CO)NC(=O)[C@H](Cc1ccc(O)cc1)NC(=O)[C@H](CC(=O)O)NC(=O)[C@H](CO)NC(=O)[C@@H](NC(=O)[C@H](Cc1ccccc1)NC(=O)[C@@H](NC(=O)CNC(=O)[C@H](CCC(=O)O)NC(=O)C(C)(C)NC(=O)[C@@H](N)Cc1ccc(O)cc1)[C@@H](C)O)[C@@H](C)O)[C@@H](C)CC)[C@@H](C)CC)C(C)C)C(=O)N[C@@H](C)C(=O)NCC(=O)NCC(=O)N1CCC[C@H]1C(=O)N[C@@H](CO)C(=O)N[C@@H](CO)C(=O)NCC(=O)N[C@@H](C)C(=O)N1CCC[C@H]1C(=O)N1CCC[C@H]1C(=O)N1CCC[C@H]1C(=O)N[C@@H](CO)C(N)=O |  |  | human | subcutaneous, 10.0 mg once weekly, week 15, multiple doses |  | CL/F | 0.635 mL/min
CC[C@H](C)[C@H](NC(=O)[C@H](CC(C)C)NC(=O)[C@H](Cc1c[nH]c2ccccc12)NC(=O)[C@H](CCC(N)=O)NC(=O)[C@@H](NC(=O)[C@H](Cc1ccccc1)NC(=O)[C@H](C)NC(=O)[C@H](CCCCNC(=O)COCCOCCNC(=O)COCCOCCNC(=O)CC[C@H](NC(=O)CCCCCCCCCCCCCCCCCCC(=O)O)C(=O)O)NC(=O)[C@H](CCC(N)=O)NC(=O)[C@H](C)NC(=O)[C@@H](NC(=O)[C@H](CCCCN)NC(=O)[C@H](CC(=O)O)NC(=O)[C@H](CC(C)C)NC(=O)C(C)(C)NC(=O)[C@@H](NC(=O)[C@H](CO)NC(=O)[C@H](Cc1ccc(O)cc1)NC(=O)[C@H](CC(=O)O)NC(=O)[C@H](CO)NC(=O)[C@@H](NC(=O)[C@H](Cc1ccccc1)NC(=O)[C@@H](NC(=O)CNC(=O)[C@H](CCC(=O)O)NC(=O)C(C)(C)NC(=O)[C@@H](N)Cc1ccc(O)cc1)[C@@H](C)O)[C@@H](C)O)[C@@H](C)CC)[C@@H](C)CC)C(C)C)C(=O)N[C@@H](C)C(=O)NCC(=O)NCC(=O)N1CCC[C@H]1C(=O)N[C@@H](CO)C(=O)N[C@@H](CO)C(=O)NCC(=O)N[C@@H](C)C(=O)N1CCC[C@H]1C(=O)N1CCC[C@H]1C(=O)N1CCC[C@H]1C(=O)N[C@@H](CO)C(N)=O |  |  | healthy subjects, single ascending dose | 8.0 mg, titre increase ≥4-fold |  | treatment-boosted ADA positive subjects | 0%
C[C@@H]1COCCN1c1cc(C2([S@](C)(=N)=O)CC2)nc(-c2cc[nH]c3nccc2-3)n1 |  |  | Japanese advanced solid tumour patients | oral, 240 mg twice daily, CTCAE grade ≥3 |  | COVID-19 incidence | 0%
C[C@H]1CN(C(=O)CC#N)[C@]12CCN(c1ncnc3[nH]ccc13)C2 |  |  | healthy human | oral, 6 mg single |  | subjects with positive SARS-CoV-2 test | 0%
C[C@@H]1Cc2c(Cl)cc(C(=O)N[C@H](Cc3ccccc3)C(=O)O)c(O)c2C(=O)O1 |  |  | chicken embryo | in ovo injection, 0.50 µg/egg |  | body weight to egg weight ratio | 72.5 ± 2.9
Cc1cn([C@H]2O[C@@H](CO[P@@](=O)(N[C@@H](C)C(=O)OC(C)C)Oc3ccccc3)[C@H](O)[C@H]2F)c(=O)[nH]c1=O |  | measured: COVID-19 infection | human | 25 mg |  | patients with TEAE | 20%
O=C[C@H](C[C@@H]1CCNC1=O)NC(=O)[C@H](CC1CCCCC1)NC(=O)c1cc2ccccc2[nH]1 |  |  | rats, plasma | intravenous, 8 mg/kg |  | AUC | 8.89 µg·h/mL

A few entries again:
Compound | target or system | test | test system | conditions | how to read | endpoint | value
CC(C)C(=O)OC[C@H]1O[C@@H](n2ccc(NO)nc2=O)[C@H](O)[C@@H]1O |  |  | rat plasma | 100 µM, 0.5 h, no CES inhibitor |  | remaining compound | 0%
CC(=O)c1c(O)c(C)c(O)c(Cc2c(O)c3c(c(C(=O)/C=C/c4ccccc4)c2O)OC(C)(C)C=C3)c1O | Voltage-gated inwardly rectifying potassium channel KCNH2 (KCNH2, Homo sapiens, UniProt Q12809) | potassium current, whole-cell patch clamp | HEK293 expressing hERG1 | 15 µM, at -120 mV |  | fast component amplitude | 47.3 ± 5%
